# Published values pooled from the literature.
# Each numbered part is a random draw from the data of one study; scales do not carry over between parts.

# Study 1
# Target: Sal-like protein 4, full length isoform A (SALL4, Homo sapiens, UniProt Q9UJQ4, residues 1-1053)
# Chain of UniProt Q9UJQ4 (whole entry, looked up): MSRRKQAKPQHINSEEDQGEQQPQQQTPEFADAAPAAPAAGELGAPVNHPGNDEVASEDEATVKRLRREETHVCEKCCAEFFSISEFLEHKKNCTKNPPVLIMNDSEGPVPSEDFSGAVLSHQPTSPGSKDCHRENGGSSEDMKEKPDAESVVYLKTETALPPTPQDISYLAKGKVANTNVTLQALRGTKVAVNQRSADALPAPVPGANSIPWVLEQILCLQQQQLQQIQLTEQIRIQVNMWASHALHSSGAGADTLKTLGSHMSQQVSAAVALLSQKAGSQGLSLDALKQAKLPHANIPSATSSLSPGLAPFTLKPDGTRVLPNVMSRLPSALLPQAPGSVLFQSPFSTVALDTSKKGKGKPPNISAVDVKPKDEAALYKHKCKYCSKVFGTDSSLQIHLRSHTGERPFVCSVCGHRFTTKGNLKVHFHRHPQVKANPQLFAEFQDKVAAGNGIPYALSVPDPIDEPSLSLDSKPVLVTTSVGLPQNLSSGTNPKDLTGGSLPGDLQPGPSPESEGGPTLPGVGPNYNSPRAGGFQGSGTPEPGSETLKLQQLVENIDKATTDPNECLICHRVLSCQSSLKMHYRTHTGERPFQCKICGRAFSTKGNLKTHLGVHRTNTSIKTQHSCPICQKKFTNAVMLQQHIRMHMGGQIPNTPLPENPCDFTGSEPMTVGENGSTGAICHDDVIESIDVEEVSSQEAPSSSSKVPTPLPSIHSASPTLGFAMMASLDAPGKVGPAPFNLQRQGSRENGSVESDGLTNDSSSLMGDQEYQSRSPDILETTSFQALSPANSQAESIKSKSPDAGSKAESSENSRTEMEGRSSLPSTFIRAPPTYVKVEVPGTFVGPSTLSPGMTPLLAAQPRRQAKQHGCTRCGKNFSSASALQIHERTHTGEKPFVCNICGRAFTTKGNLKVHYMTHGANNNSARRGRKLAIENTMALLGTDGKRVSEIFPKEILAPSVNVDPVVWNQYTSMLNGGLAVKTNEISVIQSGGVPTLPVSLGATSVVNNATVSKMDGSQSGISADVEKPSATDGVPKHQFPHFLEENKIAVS
# Technique: universal PBM
# Molecule type: double-stranded DNA, one strand shown
# Medium: in vitro
# Concentration: 600 nM
# Setting: 8-mer, flanks averaged, mean of replicates
# Reading: higher = stronger binding
Oligonucleotide,E-score
CTCACCGC,-0.273
ATATCACC,0.251
ACTGACTG,-0.164
GATGCCAA,-0.0114

# Study 2
# Target: Interferon regulatory factor 5, full length, phosphomimetic (IRF5, Homo sapiens, UniProt Q13568-2, residues 1-514, K96S/S451D/S453D/S456D/S462D)
# Technique: protein-binding microarray
# Molecule type: double-stranded DNA, one strand shown
# Medium: in vitro
# Concentration: 250 nM
# Setting: 60-bp whole probe
# With: salmon DNA 0.4 mg/ml
# Reference: random background probes
# Reading: higher = stronger binding
Oligonucleotide,log fluorescence [z-score]
GCCTAGCACTTAGGTATCGGGTTTCGGTTTGTGCTAGTCTTGATTCGCTTGACGCTGCTG,8.51
GCCTAGCACTTAGGTTTAGGGACTGGGTTAGTGCTAGTCTTGATTCGCTTGACGCTGCTG,0.0664
GCCTAGCACTTAGATTCCTGTTTCGATTAGTGCTAGGTCTTGATTCGCTTGACGCTGCTG,8.29
GCCTAGCACTAGTTTTCATTTTCTGAATGTGTGCTAGTCTTGATTCGCTTGACGCTGCTG,4.16

# Study 3
# Target: Histone acetyltransferase KAT6A, winged helix 1, GST fusion (KAT6A, Homo sapiens, UniProt Q92794, residues 1-85)
# Technique: protein binding microarray
# Molecule type: double-stranded DNA, one strand shown
# Medium: in vitro
# Concentration: not given
# Setting: 8-mer, flanks averaged, mean of 2 arrays, mostly near background
# Reference: not given
# Reading: higher = stronger binding
# Residues (chain): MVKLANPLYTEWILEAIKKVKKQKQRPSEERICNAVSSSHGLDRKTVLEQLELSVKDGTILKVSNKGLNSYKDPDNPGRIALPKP
Oligonucleotide,E-score
GTCGCCCA,0.144
CAAACGCC,0.0583
CCTAAAAA,-0.164
AGAAGGTC,-0.114

# Single results of other studies
Substance,target,assay,test system,setting,how to read,measurement,value
"PhoQ, residues 284 288 289 292 302 303 AMDMFI","PhoP, residues 12 14 15 18 19 STWGI (Escherichia coli, UniProt P23836)","Sort-seq, refers to: YFP reporter",E. coli,"PhoQ-PhoP variant library, with: 10 µM Mg2+","reference: high Mg2+ state, higher = stronger signaling",fold induction,0.992

# A few entries again (study 2):
Oligonucleotide,log fluorescence [z-score]
GCCTAGCACTAGTTTTCATTTTCTGAATGTGTGCTAGTCTTGATTCGCTTGACGCTGCTG,4.16
